# Measured values gathered from unrelated publications.
# Every numbered part comes from another study and shows a few of its results, in no order.

# Series 1
# Target: Histone acetyltransferase KAT6A, winged helix 2, GST fusion (KAT6A, Homo sapiens, UniProt Q92794, residues 85-181)
# Technique: protein binding microarray
# Form: double-stranded DNA, one strand shown
# Matrix: in vitro
# Concentration: not given
# Setting: 8-mer, flanks averaged, mean of 2 arrays, mostly near background
# Baseline: not given
# Reading: higher = stronger binding
# Residues (chain): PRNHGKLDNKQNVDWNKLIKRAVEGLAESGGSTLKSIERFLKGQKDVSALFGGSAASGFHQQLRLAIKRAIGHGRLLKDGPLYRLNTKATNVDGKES
Oligonucleotide,E-score
GCCTACTA,-0.047
AAAAGCGT,-0.0581
AGTTTGCA,0.0471
ATGTGCAC,-0.244
TCACCGAA,0.0287
CTATTTGA,0.017
AAACCGAT,-0.0381
AGACGAGC,-0.0323

# Series 2
# Target: Sal-like protein 4, full length isoform A (SALL4, Homo sapiens, UniProt Q9UJQ4, residues 1-1053)
# Chain of UniProt Q9UJQ4 (whole entry, looked up): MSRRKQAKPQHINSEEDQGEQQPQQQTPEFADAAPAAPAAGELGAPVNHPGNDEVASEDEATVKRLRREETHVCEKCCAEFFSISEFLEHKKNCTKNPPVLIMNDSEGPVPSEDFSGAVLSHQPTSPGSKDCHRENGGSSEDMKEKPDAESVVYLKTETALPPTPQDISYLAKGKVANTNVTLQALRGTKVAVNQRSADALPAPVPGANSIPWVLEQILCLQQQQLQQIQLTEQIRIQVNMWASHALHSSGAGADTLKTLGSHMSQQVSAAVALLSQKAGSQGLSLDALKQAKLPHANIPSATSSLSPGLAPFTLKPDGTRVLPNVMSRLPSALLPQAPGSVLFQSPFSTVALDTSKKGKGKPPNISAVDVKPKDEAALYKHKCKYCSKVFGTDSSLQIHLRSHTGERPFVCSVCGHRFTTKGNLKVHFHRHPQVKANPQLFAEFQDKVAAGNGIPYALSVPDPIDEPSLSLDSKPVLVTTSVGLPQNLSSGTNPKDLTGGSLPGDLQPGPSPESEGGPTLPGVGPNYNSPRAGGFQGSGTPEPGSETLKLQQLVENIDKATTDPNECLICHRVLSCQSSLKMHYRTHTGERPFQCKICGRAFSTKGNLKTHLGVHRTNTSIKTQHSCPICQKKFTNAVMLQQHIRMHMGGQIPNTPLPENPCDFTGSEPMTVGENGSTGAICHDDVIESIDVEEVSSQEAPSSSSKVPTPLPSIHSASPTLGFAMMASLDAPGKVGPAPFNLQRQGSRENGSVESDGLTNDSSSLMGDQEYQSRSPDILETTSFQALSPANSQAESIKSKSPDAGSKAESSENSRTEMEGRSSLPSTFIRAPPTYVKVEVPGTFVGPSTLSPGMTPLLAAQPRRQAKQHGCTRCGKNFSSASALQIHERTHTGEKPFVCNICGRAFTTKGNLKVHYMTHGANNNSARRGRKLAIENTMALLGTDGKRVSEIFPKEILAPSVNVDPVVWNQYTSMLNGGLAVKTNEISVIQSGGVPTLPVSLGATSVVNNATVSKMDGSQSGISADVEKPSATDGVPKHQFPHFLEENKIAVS
# Technique: universal PBM
# Form: double-stranded DNA, one strand shown
# Matrix: in vitro
# Concentration: 600 nM
# Setting: 8-mer, flanks averaged, mean of replicates
# Reading: higher = stronger binding
Oligonucleotide,E-score
ATCAGGGG,-0.0983
CACACGAC,-0.131
AGCGATAA,0.115
CACGTGAC,-0.0494
CGCGGCGC,-0.147
CGCAACCA,-0.201
AAGACGAC,0.0201
CTGGATTA,0.184

# Series 3
# Target: Interferon regulatory factor 3, full length, phosphomimetic (IRF3, Homo sapiens, UniProt Q14653, residues 1-427, S386D/S396D/S398D/S402D/T404D/S405D)
# Chain of UniProt Q14653 (whole entry, unmodified, looked up): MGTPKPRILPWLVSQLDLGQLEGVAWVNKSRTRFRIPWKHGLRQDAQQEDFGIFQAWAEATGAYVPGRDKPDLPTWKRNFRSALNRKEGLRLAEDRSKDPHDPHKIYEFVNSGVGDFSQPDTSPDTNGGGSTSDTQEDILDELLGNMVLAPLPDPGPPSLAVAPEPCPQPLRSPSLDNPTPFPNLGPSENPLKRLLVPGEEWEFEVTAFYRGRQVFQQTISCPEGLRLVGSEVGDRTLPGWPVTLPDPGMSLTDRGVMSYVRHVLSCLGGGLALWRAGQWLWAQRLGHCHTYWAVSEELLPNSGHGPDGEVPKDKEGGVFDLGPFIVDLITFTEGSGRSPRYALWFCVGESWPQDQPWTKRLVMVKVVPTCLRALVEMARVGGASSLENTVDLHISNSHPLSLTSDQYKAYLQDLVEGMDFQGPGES
# Technique: protein-binding microarray
# Form: double-stranded DNA, one strand shown
# Matrix: in vitro
# Concentration: 2540 nM top
# Setting: 60-bp whole probe
# With: salmon DNA 0.4 mg/ml
# Baseline: random background probes
# Reading: higher = stronger binding
# Shared flanks, not repeated: GCCTAGCAC … GTCTTGATTCGCTTGACGCTGCTG
Oligonucleotide,fitted relative affinity [z-score]
TTAGGTTTACTTCTCCTTTAGTGCTAG,2.86
TACGGTTTCCTTCTCCTGACGTGCTAG,9.39
GACGATATCAGTTTCGATACGTGCTAG,5.18
TTAGAACTGTGACTGGATTAGTGCTAG,-0.38
GACGATCTCAGTATCGATACGTGCTAG,1.53
TTAGAACTGAGTCTCTATTAGTGCTAG,-0.456
TTACGTTTCGGGTATCGGTTAGTGCTA,3.61
GACGATGTCGGGTTTCGAGACGTGCTA,0.697

# Series 4
# Target: Replicase polyprotein 1ab, nsp13 helicase (rep, Severe acute respiratory syndrome coronavirus 2, UniProt P0DTD1)
# Mode: inhibitor
# Concentration: 20 µM
SMILES,inhibition [%]
C=CC[C@@H]1/C=C(\C)C[C@H](C)C[C@H](OC)[C@H]2O[C@@](O)(C(=O)C(=O)N3CCCC[C@H]3C(=O)O[C@H](/C(C)=C/[C@@H]3CC[C@@H](O)[C@H](OC)C3)[C@H](C)[C@@H](O)CC1=O)[C@H](C)C[C@@H]2OC,9.43
CN1CCCC(n2nc(Cc3ccc(Cl)cc3)c3ccccc3c2=O)CC1 (stereo not shown),9.78
O=C(O)CC(S)C(=O)O (stereo not shown),2.93
CCC(=O)[C@@]1(C)[C@H](C)C[C@H]2[C@@H]3CCC4=CC(=O)C=C[C@]4(C)[C@H]3[C@@H](O)C[C@@]21C,2.02
Cc1cc(C)c(N(Cc2ccccc2)S(=O)(=O)c2ccc(OCCNC(=O)c3cc4ccccc4o3)cc2)c(C(=O)NO)c1,-0.1
N[C@@H](COP(=O)(O)O)C(=O)O,5.39
COc1c(C)cnc(Cn2cc(C#CCC(C)(C)O)c3c(Cl)nc(N)nc32)c1C,4.45
C[C@H](CCC(=O)O)[C@H]1CC[C@H]2[C@@H]3[C@H](O)C[C@@H]4C[C@H](O)CC[C@]4(C)[C@H]3C[C@H](O)[C@]12C,-1.91
CCC(C(=O)O)c1ccc(CC(C)C)cc1 (stereo not shown),4.28
O=c1c2c(c1=O)N(CCP(=O)(O)O)CCCN2,85.8
O=C(Nc1ccc(N2CCC(C(=O)N3CCOCC3)CC2)cc1)c1cnc(Oc2ccccc2)nc1,3.15
N=C(N)NCCCCN,-3.59
COc1ccc2nc(SCc3ncc(C)c(OC)c3C)[nH]c2c1,-2.33
Nc1ncnc2c1ncn2[C@H]1CC[C@@H](CO)O1,6.08
CC(=O)c1cc2c(o1)C(=O)c1ccccc1C2=O,8.36
O=[N+]([O-])c1cc(Cl)ccc1S(=O)(=O)N1CCN(Cc2ccccc2)CC1,8.11
O=C(O)Cc1ccc(CCNS(=O)(=O)c2ccc(Cl)cc2)cc1,6.6
C[N+](C)(CF)CCO,5.56
CNC(=O)COC(=O)NCCC1CCN(c2cccc(C)n2)CC1,1.71
CC(=O)OCC(=O)[C@@]1(O)CC[C@H]2[C@@H]3CCC4=CC(=O)CC[C@]4(C)[C@@]3(F)[C@@H](O)C[C@@]21C,6.34
CCCn1c(=O)c2[nH]c(C3CCCC3)nc2n(CCC)c1=O,5.82
CNCCn1c(=O)c2cc(OC)c(OC)cc2c2cnc3cc4c(cc3c21)OCO4,4.33
c1ccc2c(c1)CN1CCCC1=N2,2.17
CC(=O)O[C@H]1C(=O)[C@@]2(C)[C@H]([C@H](OC(=O)c3ccccc3)[C@]3(O)C[C@H](OC(=O)[C@H](O)[C@@H](NC(=O)c4ccccc4)c4ccccc4)C(C)=C1C3(C)C)[C@]1(OC(C)=O)CO[C@@H]1C[C@@H]2O,4.05
COc1cccc2c1C(=O)c1c(O)c3c(c(O)c1C2=O)C[C@@](O)(C(=O)CO)C[C@@H]3O[C@H]1C[C@H](N)[C@H](O[C@@H]2CCCCO2)[C@H](C)O1,46

# Series 5
# Target: RNA binding protein fox-1 homolog 2, RRM domain, GST-SBP tag (RBFOX2, Homo sapiens, UniProt O43251-10, residues 100-194)
# Technique: RNA Bind-n-Seq
# Form: RNA
# Matrix: in vitro
# Concentration: 365 nM
# Setting: natural RNA segment, single round, ends assumed
# Baseline: no-protein control
# Reading: higher = stronger binding
# Shared flanks, not repeated: GGGAGUUCUACAGUCCGACGAUC … UGGAAUUCUCGGGUGCCAA
# Target sequence (chain): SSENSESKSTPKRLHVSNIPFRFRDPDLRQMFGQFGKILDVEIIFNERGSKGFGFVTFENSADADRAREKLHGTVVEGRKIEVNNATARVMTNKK
Oligonucleotide,RBNS enrichment (R)
CAGGCACCAAGUGCGUAGGCGACGGUAGAUGUUUGCUGAUUGAAUUGAGUCCCCACGGCAUCUCUGGGAGGCAGGUGGUGAGCUCUUCACACAUCUUGAGCGAGAAGGCA,3.61
CAAUCUGUUGUUGAGUUCCCCCUCUCUGCAUCAGUCUUCCCUGGAAAUGGAGGACCUGGUGCAGUACCUUUCCUCUGAGGCUUGGAUUCCCGUUCUUGGGUGUAAUGUUG,0.915
AAUUAUUUUCUAAGCAAAAUAACACUUGUUUGUUUAUGGCCCAUGGAUCAUAGCUUCCUGUCCCCACCUAUUUUUGUAAAUAAAGUUUUAUGGGAACACAACCACAUCCA,0.242
CAGUAGUCCUCAGCAAUUCUCCAAGUUUCUCUCUUUGCCUAAAAUGGUCAUAGAUCUUGAUUUCUCUGAAUCGUGAUGACCACACCCAGUCAUCUUCACAGCAUAAUUGC,0.646
GGUCUGAAGAUGGUCAAGUCUGUUUGCCUUAGAUUUUGAUGUCACCUAGACAACACUUAAACUCAUAUGAAACAAAAAUUAAAAUACGUAUUACAAGUACUUGGAUUGUU,0.99

# Mixed results
Structure (SMILES),cell line,conditions,how to read,measurement,result
O=S(=O)(O)Oc1ccc(C(c2ccc(OS(=O)(=O)O)cc2)c2ccccn2)cc1,HEK-293T/ACE2,"concentration not given, 16 (unit not given)",baseline: vehicle,viability,103%

# A few entries again (series 4):
SMILES,inhibition [%]
Nc1ncnc2c1ncn2[C@H]1CC[C@@H](CO)O1,6.08
CC(=O)c1cc2c(o1)C(=O)c1ccccc1C2=O,8.36
O=[N+]([O-])c1cc(Cl)ccc1S(=O)(=O)N1CCN(Cc2ccccc2)CC1,8.11
O=C(O)Cc1ccc(CCNS(=O)(=O)c2ccc(Cl)cc2)cc1,6.6
C[N+](C)(CF)CCO,5.56
CNC(=O)COC(=O)NCCC1CCN(c2cccc(C)n2)CC1,1.71
CC(=O)OCC(=O)[C@@]1(O)CC[C@H]2[C@@H]3CCC4=CC(=O)CC[C@]4(C)[C@@]3(F)[C@@H](O)C[C@@]21C,6.34
CCCn1c(=O)c2[nH]c(C3CCCC3)nc2n(CCC)c1=O,5.82
CNCCn1c(=O)c2cc(OC)c(OC)cc2c2cnc3cc4c(cc3c21)OCO4,4.33
